Measured values gathered from unrelated publications.
Each line is one published result; not all experiments were run side by side.

SMILES = CC1=C[C@@H](C)[C@H]2[C@@H]3C(=O)C(Cl)(Cl)C(=O)[C@H](C)C(=O)O[C@@H](C)/C=C/C=C\[C@@H](C)[C@@H]3C=C[C@@H]2C1; system = PBS; setting = 90 min, pH 7.4; kinetic solubility = 0.073 µM
SMILES = C[C@@H]1CC[C@@H]([C@@](O)(CNCc2ccc(F)cc2)COCc2ccccc2)[C@H](OCc2ccccc2)C1; system = PBS; setting = 2 h, pH 7.4; kinetic solubility = 1.4 µM
SMILES = Cc1cc(N2CC[C@@](C#N)(C3CC3)C2=O)cc(NC(=O)Cc2ccccc2)n1; test = nephelometry; system = aqueous buffer; setting = 30 min, pH 6.5; kinetic solubility = 6.3 to 12.5 µg/mL
SMILES = CCN(c1nc(N[C@H](CC(N)=O)C(=O)NC)nc(N2CCN(c3ccccc3C#N)CC2)n1)C1CCCCC1; system = PBS; setting = pH 7.4; kinetic solubility = 246 µM
SMILES = Cc1ccc(NC(C)(C)C(=O)Nc2ccc(F)c(Cl)c2)cc1S(=O)(=O)N1CC2CC1CO2 (stereo not drawn); system = water; kinetic solubility = 143 µM
SMILES = C[C@@H]1CC[C@@H]([C@](O)(CNCc2ccccc2F)COCc2ccccc2)[C@H](OCc2ccccc2)C1; system = PBS; setting = 2 h, pH 7.4; kinetic solubility = 2.6 µM
SMILES = Cc1ccc(NCC(=O)Nc2ccccc2)cc1S(=O)(=O)N1CCOCC1; system = water; kinetic solubility = 183 µM
SMILES = CC(C)(C)C12CC(CN3CCN(C(c4ccccc4)c4ccc(Cl)cc4)CC3)(C1)C2 (stereo not drawn); system = PBS; setting = pH 7.4; kinetic solubility = ≤ 1 µM
SMILES = Cc1ccc(NC(C)(C)C(=O)Nc2ccc(F)c(Cl)c2)cc1S(=O)(=O)N1CC2CCC(C1)O2; system = water; kinetic solubility = 157 µM
SMILES = CC[C@@H](C)[C@@H]1NC(=O)[C@@H](Cc2ccccc2)NC(=O)[C@@H]2CCCN2C(=O)[C@H]([C@H](C)CC)NC(=O)[C@@H](Cc2ccccc2)NC(=O)[C@@H]2CCCN2C1=O; system = aqueous buffer; kinetic solubility = ≥ 254 µg/mL
SMILES = Cc1ccc(NCC(=O)Nc2ccc(F)c(Cl)c2)cc1S(=O)(=O)N1CC2CC1CO2 (stereo not drawn); system = water; kinetic solubility = 219 µM
SMILES = COc1ccccc1CNC[C@](O)(COCc1ccccc1)[C@@H]1CC[C@@H](C)C[C@H]1OCc1ccccc1; system = PBS; setting = 2 h, pH 7.4; kinetic solubility = 6.5 µM
SMILES = CCN(CC)S(=O)(=O)c1cc(NCC(=O)Nc2ccc(F)c(Cl)c2)ccc1C; system = water; kinetic solubility = 79 µM
SMILES = C[C@@H]1CC[C@@H]([C@@](O)(CNCc2cccc(F)c2)COCc2ccccc2)[C@H](OCc2ccccc2)C1; system = PBS; setting = 2 h, pH 7.4; kinetic solubility = 31.8 µM
SMILES = Cc1cc(N2CCC(CO)(C3CC3)C2=O)cc(C(=O)NCc2cc(F)cc(-c3cnn(C)c3)c2)n1 (stereo not drawn); test = nephelometry; system = aqueous buffer; setting = 30 min, pH 6.5; kinetic solubility = 3.1 to 6.3 µg/mL

Some of these lines once more:
SMILES = CC1=C[C@@H](C)[C@H]2[C@@H]3C(=O)C(Cl)(Cl)C(=O)[C@H](C)C(=O)O[C@@H](C)/C=C/C=C\[C@@H](C)[C@@H]3C=C[C@@H]2C1; system = PBS; setting = 90 min, pH 7.4; kinetic solubility = 0.073 µM
